Assay results of several laboratories.
Each line is one published result; not all experiments were run side by side. Numbers after ± are the reported error.
BCHE: Cholinesterase (BCHE, Equus caballus, UniProt P81908)
UniProt P81908, sequence (whole entry, looked up): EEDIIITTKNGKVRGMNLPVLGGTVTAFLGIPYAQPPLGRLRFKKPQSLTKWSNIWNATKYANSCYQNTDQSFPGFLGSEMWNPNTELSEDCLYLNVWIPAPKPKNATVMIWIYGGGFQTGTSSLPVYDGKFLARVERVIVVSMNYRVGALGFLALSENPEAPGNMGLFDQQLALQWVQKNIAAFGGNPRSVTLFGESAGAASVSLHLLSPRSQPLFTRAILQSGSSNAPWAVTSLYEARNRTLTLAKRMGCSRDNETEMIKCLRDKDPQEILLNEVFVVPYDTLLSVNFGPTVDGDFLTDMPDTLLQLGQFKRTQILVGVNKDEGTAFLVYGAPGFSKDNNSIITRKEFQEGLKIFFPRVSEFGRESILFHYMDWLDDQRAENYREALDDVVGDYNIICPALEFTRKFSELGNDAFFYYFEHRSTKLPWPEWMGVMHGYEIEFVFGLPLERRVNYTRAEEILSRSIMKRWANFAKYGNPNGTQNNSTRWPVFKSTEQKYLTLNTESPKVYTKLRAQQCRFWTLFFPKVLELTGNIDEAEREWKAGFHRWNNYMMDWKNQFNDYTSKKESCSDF
MAP3K7: Mitogen-activated protein kinase kinase kinase 7 (MAP3K7, Homo sapiens, UniProt O43318)
UniProt O43318, sequence (whole entry, looked up): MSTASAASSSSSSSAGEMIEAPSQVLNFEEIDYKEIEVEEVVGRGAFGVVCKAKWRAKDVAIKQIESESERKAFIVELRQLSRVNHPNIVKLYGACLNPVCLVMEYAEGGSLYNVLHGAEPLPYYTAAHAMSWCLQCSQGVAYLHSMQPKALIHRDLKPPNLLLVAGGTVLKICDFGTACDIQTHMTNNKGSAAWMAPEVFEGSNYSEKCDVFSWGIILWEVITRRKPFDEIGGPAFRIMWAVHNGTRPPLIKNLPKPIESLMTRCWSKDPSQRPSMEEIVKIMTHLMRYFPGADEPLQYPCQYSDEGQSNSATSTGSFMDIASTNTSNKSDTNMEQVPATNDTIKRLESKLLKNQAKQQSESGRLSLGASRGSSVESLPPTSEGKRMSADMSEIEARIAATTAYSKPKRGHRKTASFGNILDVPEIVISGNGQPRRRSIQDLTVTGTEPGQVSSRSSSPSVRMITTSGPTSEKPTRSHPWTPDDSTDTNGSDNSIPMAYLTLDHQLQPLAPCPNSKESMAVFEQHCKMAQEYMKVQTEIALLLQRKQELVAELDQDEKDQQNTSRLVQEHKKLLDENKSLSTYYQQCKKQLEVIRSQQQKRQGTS
UniProt Q07002, sequence (whole entry, looked up): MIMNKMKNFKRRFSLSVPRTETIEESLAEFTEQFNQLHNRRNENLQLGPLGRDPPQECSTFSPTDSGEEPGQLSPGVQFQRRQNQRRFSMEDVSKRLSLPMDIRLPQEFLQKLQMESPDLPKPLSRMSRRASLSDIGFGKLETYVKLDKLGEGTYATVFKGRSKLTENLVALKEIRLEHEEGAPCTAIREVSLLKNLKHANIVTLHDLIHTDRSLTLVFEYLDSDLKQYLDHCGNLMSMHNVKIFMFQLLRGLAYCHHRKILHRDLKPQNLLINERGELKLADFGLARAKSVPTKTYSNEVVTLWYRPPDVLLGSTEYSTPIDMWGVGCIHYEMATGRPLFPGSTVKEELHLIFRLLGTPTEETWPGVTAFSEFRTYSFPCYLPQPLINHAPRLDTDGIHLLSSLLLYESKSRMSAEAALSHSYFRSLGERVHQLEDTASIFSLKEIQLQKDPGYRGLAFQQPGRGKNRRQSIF
UniProt Q9Y5N1, sequence (whole entry, looked up): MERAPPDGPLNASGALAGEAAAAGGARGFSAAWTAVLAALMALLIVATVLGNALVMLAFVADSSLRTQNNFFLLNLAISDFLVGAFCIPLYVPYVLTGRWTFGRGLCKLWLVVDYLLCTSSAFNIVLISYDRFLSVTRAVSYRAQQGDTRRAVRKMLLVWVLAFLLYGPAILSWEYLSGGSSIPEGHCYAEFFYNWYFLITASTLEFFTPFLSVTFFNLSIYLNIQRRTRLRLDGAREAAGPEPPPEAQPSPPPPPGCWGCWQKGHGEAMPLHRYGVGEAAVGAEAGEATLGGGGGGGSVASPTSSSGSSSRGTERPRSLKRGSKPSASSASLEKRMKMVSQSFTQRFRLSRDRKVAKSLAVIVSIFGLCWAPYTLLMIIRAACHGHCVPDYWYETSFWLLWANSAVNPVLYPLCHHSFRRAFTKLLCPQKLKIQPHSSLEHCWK
UniProt Q14432, sequence (whole entry, looked up): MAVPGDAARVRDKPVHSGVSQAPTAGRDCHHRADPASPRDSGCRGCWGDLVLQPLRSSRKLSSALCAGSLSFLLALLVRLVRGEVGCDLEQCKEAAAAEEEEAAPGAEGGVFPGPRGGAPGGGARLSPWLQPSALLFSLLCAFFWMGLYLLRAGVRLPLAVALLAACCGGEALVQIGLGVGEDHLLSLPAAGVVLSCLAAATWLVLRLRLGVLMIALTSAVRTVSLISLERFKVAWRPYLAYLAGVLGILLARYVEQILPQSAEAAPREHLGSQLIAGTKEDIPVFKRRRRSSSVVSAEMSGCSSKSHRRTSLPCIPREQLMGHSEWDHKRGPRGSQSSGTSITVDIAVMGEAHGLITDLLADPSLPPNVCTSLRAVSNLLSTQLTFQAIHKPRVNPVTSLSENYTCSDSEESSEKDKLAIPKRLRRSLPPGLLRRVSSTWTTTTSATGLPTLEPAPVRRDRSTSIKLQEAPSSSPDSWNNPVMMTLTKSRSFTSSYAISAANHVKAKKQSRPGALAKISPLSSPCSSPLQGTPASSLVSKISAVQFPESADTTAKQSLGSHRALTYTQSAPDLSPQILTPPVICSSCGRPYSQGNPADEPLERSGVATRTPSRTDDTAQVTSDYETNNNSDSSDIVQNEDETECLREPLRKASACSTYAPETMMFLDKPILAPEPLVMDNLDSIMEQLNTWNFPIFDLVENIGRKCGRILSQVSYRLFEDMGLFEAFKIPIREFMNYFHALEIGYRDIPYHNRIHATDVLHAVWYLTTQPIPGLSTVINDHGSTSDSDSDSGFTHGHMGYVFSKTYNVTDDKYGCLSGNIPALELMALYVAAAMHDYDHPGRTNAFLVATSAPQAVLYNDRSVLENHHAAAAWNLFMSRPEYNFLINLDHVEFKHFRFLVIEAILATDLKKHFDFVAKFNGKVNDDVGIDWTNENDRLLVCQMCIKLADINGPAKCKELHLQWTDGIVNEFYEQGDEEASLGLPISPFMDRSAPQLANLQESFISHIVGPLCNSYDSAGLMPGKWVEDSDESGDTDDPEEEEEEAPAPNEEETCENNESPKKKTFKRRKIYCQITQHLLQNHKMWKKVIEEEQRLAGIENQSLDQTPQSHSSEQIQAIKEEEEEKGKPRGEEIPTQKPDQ
UniProt Q8N4C8, sequence (whole entry, looked up): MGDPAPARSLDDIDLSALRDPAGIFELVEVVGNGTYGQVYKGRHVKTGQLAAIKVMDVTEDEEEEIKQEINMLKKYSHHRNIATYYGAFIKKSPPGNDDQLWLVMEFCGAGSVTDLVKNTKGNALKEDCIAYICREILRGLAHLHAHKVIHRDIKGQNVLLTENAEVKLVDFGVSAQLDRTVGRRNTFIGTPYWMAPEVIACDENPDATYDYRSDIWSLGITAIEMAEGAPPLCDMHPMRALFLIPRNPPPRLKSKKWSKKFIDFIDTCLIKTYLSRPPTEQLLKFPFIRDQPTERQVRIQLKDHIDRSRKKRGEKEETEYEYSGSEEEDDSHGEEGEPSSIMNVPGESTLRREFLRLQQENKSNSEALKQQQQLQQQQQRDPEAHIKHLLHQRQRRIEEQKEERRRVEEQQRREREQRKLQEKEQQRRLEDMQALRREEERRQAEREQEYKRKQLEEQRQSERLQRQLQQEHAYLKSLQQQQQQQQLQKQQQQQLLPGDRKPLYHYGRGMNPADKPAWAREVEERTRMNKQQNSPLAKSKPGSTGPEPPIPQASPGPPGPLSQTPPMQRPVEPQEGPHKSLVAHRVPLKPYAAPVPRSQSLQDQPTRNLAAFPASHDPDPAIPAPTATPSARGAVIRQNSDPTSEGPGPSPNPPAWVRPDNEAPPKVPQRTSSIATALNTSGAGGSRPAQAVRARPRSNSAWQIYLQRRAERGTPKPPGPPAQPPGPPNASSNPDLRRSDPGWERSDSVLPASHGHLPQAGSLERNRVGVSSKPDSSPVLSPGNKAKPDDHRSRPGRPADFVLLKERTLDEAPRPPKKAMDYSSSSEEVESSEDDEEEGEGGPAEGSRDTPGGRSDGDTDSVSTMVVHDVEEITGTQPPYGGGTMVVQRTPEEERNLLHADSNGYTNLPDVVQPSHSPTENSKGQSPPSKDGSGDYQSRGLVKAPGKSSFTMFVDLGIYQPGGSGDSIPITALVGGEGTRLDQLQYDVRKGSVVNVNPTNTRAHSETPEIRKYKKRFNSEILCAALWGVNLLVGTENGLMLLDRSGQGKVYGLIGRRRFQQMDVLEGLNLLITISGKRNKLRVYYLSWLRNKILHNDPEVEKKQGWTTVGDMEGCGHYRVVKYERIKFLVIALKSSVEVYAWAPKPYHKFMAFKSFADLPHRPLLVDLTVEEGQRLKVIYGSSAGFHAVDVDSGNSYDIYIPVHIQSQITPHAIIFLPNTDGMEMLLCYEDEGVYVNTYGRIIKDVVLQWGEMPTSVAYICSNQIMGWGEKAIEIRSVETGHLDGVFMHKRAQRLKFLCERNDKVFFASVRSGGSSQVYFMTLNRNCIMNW
UniProt Q00535, sequence (whole entry, looked up): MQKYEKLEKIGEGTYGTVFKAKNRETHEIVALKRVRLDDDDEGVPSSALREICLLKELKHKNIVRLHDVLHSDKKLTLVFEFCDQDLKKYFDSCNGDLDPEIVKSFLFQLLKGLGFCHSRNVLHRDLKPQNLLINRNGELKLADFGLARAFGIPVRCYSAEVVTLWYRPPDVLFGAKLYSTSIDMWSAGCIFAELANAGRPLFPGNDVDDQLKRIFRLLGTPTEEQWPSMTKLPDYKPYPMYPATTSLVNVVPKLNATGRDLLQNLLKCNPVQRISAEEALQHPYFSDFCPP

Structure (SMILES)	target or system	test	system	setting	measurement	result
CC(=O)NC[C@@H]1[C@@H](O)C[C@H]2[C@H](O)C[C@@H](CO)N12	Spodoptera litura β-N-acetylglucosaminidase		crude enzyme	0.107 µM, run 2, with: p-nitrophenyl GlcNAc	inhibition	18.3%
CCn1nc(-c2ccccc2)nc2c(=O)n(C)c(=O)nc1-2	USP5 (Homo sapiens, UniProt P45974)	enzyme activity, inhibitor		17 µM	inhibition	96%
O=S(=O)(F)CCc1cn(-c2ccc(OC(F)(F)F)cc2)nn1	BCHE	Ellman	horse	20 µM	inhibition	45.1 ± 1.8%
O=C(CN1CN(c2ccccc2)C2(CCN(C(=O)c3cnc4[nH]ncc4c3)CC2)C1=O)NCC(F)(F)F	DCLK1 (Homo sapiens, UniProt O15075)	inhibitor		concentration not given	inhibition	< 50%
O=C(N1CCCCC1)n1ccnn1	sn-1-specific diacylglycerol lipase ABHD11 (Mus musculus, UniProt Q8K4F5)	serine hydrolase activity, inhibitor, competitive gel-based ABPP	mouse T-cell proteome	1 µM, 30 min, 37 °C	inhibition	50 to 95%
CN(C)[C@H]1C[C@@]23CC[C@@]4(O2)C(=CC[C@]2(C)[C@@H](c5ccc6ccncc6c5)CC[C@H]24)C=C3[C@@H](O)[C@@H]1O	MAP3K7	ATP probe labelling, inhibitor, KiNativ profiling		1 µM	inhibition	-12.1%
CCCCCCCCCCCCCCCCCC(=O)NC[C@H]1CC[C@H](C(=O)N[C@@H](CCC(=O)NCCCOCCOCCOCCCNC(=O)COCC(=O)N[C@@H](Cc2ccc(O)cc2)C(=O)NC(C)(Cc2ccccc2)C(=O)N[C@@H](CC(C)C)C(=O)N[C@@H](CCCC)C(=O)N[C@@H](CCCNC(=N)N)C(=O)N2CCC[C@H]2C(=O)N[C@@H](CCCNC(=N)NC)C(=O)N[C@@H](CC(N)=O)C(N)=O)C(=O)O)CC1 (stereo partly shown)	PRLHR (Homo sapiens, UniProt P49683)	antagonist, DiscoverX GPCR panel		1 µM	inhibition	58%
CS(C)(=O)=Nc1ccc(-c2ccc(-c3nc4cc(O[C@@H]5CO[C@H]6[C@@H]5OC[C@H]6O)[nH]c4cc3F)cc2)cc1	MAP3K7	enzyme activity, inhibitor		10 µM	inhibition	4%
CC(C)[C@H]1NC(=O)C[C@H]2/C=C/CCSSC[C@@H](NC1=O)C(=O)N[C@H](Cc1cccc3ccccc13)C(=O)NCC(=O)O2	MINK1 (Homo sapiens, UniProt Q8N4C8)	enzyme activity, inhibitor		10 µM	inhibition	3.6%
CCN(CC)CCOc1ccc(-c2nnn(Cc3ccc(OC)cc3)c2N)cc1	CHRNA7 (Homo sapiens, UniProt P36544)	radioligand binding	HEK293	10 µM, safety profiling	inhibition	-8.19%
c1ccc2c(c1)CCNC2	BCHE	enzyme activity, inhibitor, Ellman		20 µM	inhibition	36.9%
N[C@H](C(=O)N1CCCC1)C1CCN(c2nccc3c(-c4ncc(Cl)cc4Cl)cccc23)CC1	CSNK2A2 (Homo sapiens, UniProt P19784)	kinase activity, inhibitor		10 µM, with: ATP 1 mM	inhibition	5.2%
C[C@H](NCc1ccc(-c2ccc(C(F)(F)F)cc2)cc1)C(N)=O	L-type calcium channel dihydropyridine site, rat	binding, radioligand binding	biochemical	1 µM, with: [3H]nitrendipine 0.10 nM	inhibition	-1%
Cc1cc(-c2ccc3ccccc3c2)nnc1NCCN1CCN(C)CC1	PDE3A (Homo sapiens, UniProt Q14432)	enzyme activity		concentration not given	inhibition	negative
O=S(=O)(F)CCc1cn(Cc2ccccc2F)nn1	BCHE	enzyme activity, inhibitor, Ellman's method	horse serum BuChE	20 µM	inhibition	29.4 ± 3.3%
CN(/N=C/c1ccccc1C(=O)O)c1nc(-c2ccccc2Cl)cs1	Cyclin-dependent kinase 5, with p35 (CDK5, Homo sapiens, UniProt Q00535)	enzyme activity, inhibitor		1 µM	inhibition	-5.71%
O=C1NC2(CC2)COc2ncc(F)cc2[C@H]2COCCN2c2ccn3ncc1c3n2			Sprague-Dawley rat, male, blood	oral, 10 mg/kg/day, 4 weeks, end of recovery, subacute toxicity	neutrophil percentage	11.7 ± 2.5%
CCC1CC(c2ccc(C(=O)O)cc2C)=NN1c1ccc(C#N)c(Cl)c1 (stereo not shown)	DNA (cytosine-5)-methyltransferase 3A, with DNMT3L (DNMT3A, Homo sapiens, UniProt Q9Y6K1)	enzyme activity		10 µM	inhibition	3%
O=C(O)c1ccccc1/C=N/Nc1nc(-c2ccccc2Cl)cs1	Cyclin-dependent kinase 18, with cyclin Y (CDK18, Homo sapiens, UniProt Q07002)	enzyme activity, inhibitor		1 µM	inhibition	-1.57%
COc1ccc(F)cc1S(=O)(=O)Nc1cnc2c(c1)C(=O)NCCO2	NMDA receptor Glycine site	radioligand binding		10 µM	inhibition	-1%
Cc1ccc2c(n1)c(-c1cccc(S(C)(=O)=O)c1)c(C)n2C/C(F)=C/CN	BDKRB2 (Homo sapiens, UniProt P30411)	ligand displacement, radioligand		10 µM	inhibition	3%
CN[C@@H]1[C@H](O)[C@H](NC)[C@H]2O[C@]3(O)[C@H](O[C@@H]2[C@H]1O)O[C@H](C)C[C@H]3NC(=O)Cc1ccc(Cl)cn1	HRH3 (Homo sapiens, UniProt Q9Y5N1)	ligand displacement, radioligand		10 µM	inhibition	-12%
